Experimental data pooled from the literature.
Every numbered part comes from another study and shows a few of its results, in no order. Substitutions count along the parent as printed.

Study 1
Target: CCND1, cyclin fold, Cln2 fusion (human)
Method: yeast growth competition, sequencing
Sample: yeast
Notes: weak parent motif
Reference: not given
Reading: higher = stronger binding
Parent: CDC25A docking peptide (human); PPHRRRLLFACSP
Change | normalised enrichment score
PPHRGRLLFACSP [R5G] | 0.0467
PPHRRRLLFACSE [P13E] | -0.145
PPHRRRLLFACSA [P13A] | 0.309
PWHRRRLLFACSP [P2W] | 0.253
PPHRRRLAFACSP [L8A] | -0.0884
PPHRRRQLFACSP [L7Q] | -0.387
PPGRRRLLFACSP [H3G] | 0.413
PPHRNRLLFACSP [R5N] | -0.607
PPHRRRLLFECSP [A10E] | -0.0933
PPHRRRMLFACSP [L7M] | 0.0774
PPHRRRLLFACIP [S12I] | 0.481
PPHFRRLLFACSP [R4F] | 0.49
PPHVRRLLFACSP [R4V] | 0.512

Study 2
Target: Hepatocyte nuclear factor 3-alpha (Foxa1, Mus musculus, UniProt P35582, residues 1-468, full length assumed)
Chain of UniProt P35582 (whole entry, looked up): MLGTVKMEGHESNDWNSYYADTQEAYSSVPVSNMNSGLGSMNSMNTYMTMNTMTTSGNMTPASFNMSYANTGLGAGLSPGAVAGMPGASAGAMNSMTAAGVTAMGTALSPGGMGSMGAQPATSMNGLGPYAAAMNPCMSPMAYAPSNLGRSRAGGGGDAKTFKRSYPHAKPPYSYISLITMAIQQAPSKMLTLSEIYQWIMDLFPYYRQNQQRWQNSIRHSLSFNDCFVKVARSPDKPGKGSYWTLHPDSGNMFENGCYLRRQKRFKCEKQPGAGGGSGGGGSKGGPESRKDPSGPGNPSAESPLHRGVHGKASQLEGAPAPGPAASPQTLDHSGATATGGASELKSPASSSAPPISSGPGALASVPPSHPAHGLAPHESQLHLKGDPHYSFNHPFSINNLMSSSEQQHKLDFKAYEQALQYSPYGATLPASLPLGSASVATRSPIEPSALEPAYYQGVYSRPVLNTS
Method: EMSA with sequencing
Form: double-stranded DNA, one strand shown
Sample: in vitro
Tested at: 10 and 20 nM
Notes: whole designed probe, mean of two concentrations, ends assumed
Reference: negative control set to 0
Reading: higher = stronger binding
Constant ends, left off below: GTGAGCGGTGCCCATTGATGGGGAAC … TTTCACTGGGATCGTGGGGAC
Oligonucleotide | normalised bound fraction [ratio]
ATCTTCCCCCTCTTCCTTGCCCCACCAGCTCACCTACGGGGGTTATTTGCAGATAGGAAAATAAATAAAGCCGGCATTCGTTAACCCTCTTCACGCGCATACTGCTGTTTGCTCTGCATCTAACATGGTCCTTACGCGACGCCAGGCTCCGGGAGAGCAAAGCACCGTGTCAGGCGCATGATCCGGGCTCGCC | 0.349
ACATTTGACAAACTTCAACACCCTTTCATGACAAAAACACTTATAGAAGGAAACAACCTCAACATAATAAAAGCCATATATGAAAAACCCACAGCAAACATCACACTCCATGGTGAACGTCTGAAAGCTTTTTCTCTAAAAATCAAGAACAAGGCAAAGATGCTCAATTTCACCACTTCTATTCAACGTAGTT | -0.00145
ATCTTCCCCCGTTTCTCTCCCCCACCAGCTCACCTTCCCGGGTTATTTGCAGATAGGAAAATAAATAAAGCCGGCATTCGTTAACCCTCTTCTGGCGCAAACTGCTGTTTGCTCTGGATGAATCATGGTCCTTTGGCGACGCCAGGCTCCGGGAGAGCAAAGCACCGTGTCAGGGCCATGATCCGGGGTGGCC | 0.331
GTGTGTGCGCGCGCGTGTGTGTGTGTTTTCTTAAGCCGGGCTATTCAAACCCTGCTGCCAATGATTCATAATTCTCCGGTAAAGGGGCACGTTTATTTGCATTAGATTGCAAACGGCGCGGTTCGCGCACTTTGCAGCCGGCCCGGTGGAGCAGCCAGTGCCGGATTTCTCCCTTTTTTTGCAGATCTGCAGA | 0.439
TTTGTCTGCTTCCTGCCTATATAACATGCATGGCTATCTAAACTCTCAAATACCCTACTACCTGGCTAGTTTAAGAGGCAAGCACTAGCAGACTTGTTTACTTTGTTTAGATTGCAGCTGCTGTCGCCCTAATGTAAAGGTAATGCCATGACCCCAAGTATCTAGGATACTCTCACTGGAAAAGCTCTGCAAA | 0.456
TTACTGACATGAAGAGCGTTGCTATAGTTTTAAGAGATTTTTTTTTTCTGATTTTAAACAAAAACTAGAATAAAAATTTTCACACTTTCAAAGTAATCTGAAAGGGGGGGATTGTGACATTTAGCACATGCAGTATGAGAATTATTGGTAAAAGAAAAGCCAAAAAAGGTTTACAACTGTCCCACGACAAAAA | -0.0437
GTGTGTGCGCGCGCGTGTGTGTGTGTTTTCTTAAGCCGGGCTATTCAAACCCTGCTGCAATTCTCCGGTAAAGGCAATGATTCATGGCACGTTTATTTGCATTAGATTGCAAACGGCGCGGTTCGCGCACTTTGCAGCCGGCCCGGTGGAGCAGCCAGTGCCGGATTTCTCCCTTTTTTTGCAGATCTGCAGA | 0.421
GTCATTTATTTCATGTTGTCCTGAGATTGGATCTAAACTTTGAGCTCCTAATCATTGCTCAGATTGTGTGGCCTCGTAAGATTGTGCGTAATAAGTAATCTAGCATCTGTACACTTGTTAACTTAATGAGCTTCTGTATGTGACACTTTAAGCCTTTTTAAAAATTAAGTGCTGGGCTATGCTTGGTGTCTCA | -0.036

Study 3
Target: RNA binding protein fox-1 homolog 2, RRM domain, GST-SBP tag (RBFOX2, Homo sapiens, UniProt O43251-10, residues 100-194)
Method: RNA Bind-n-Seq
Form: RNA
Sample: in vitro
Tested at: 365 nM
Notes: natural RNA segment, single round, ends assumed
Reference: no-protein control
Reading: higher = stronger binding
Constant ends, left off below: GGGAGUUCUACAGUCCGACGAUC … UGGAAUUCUCGGGUGCCAA
Residues (chain): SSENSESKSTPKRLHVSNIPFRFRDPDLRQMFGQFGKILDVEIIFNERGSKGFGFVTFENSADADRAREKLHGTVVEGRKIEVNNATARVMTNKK
Oligonucleotide | RBNS enrichment (R)
ACAACCACAAACCCUAUCAGAUCUAUUCACCUUUUUCAGAGCAGAUAUUUUGUAACAUUCUCUUUGCUGACCUGAAAUGACUCAUAGAUAAUACAAUCUACUUACACACA | 0.564
CAAAAUCCUGCAGAAUGUAAGUAAGCUCUGCUUUAUAAGAUGGGUUCACCUUCAUCGCAGACUGAAAGUUUCAGUUUUUAUUUUUUUCAGAAAGCACGAAAAAUUAUUUA | 0.745
AAGUCAGAGACAUUUUGAGGUGGUUACUACAGAUUACUGUUUCACAUUGUUUUCCUCACUGGACAGGACUGACAGGAUUACGGGGGUGGUUCCUUUAACUCUUCACCAAG | 0.299
AAGGACUCCUAAGCGCCGAAGCCAAGGAGCCUCCUCCCUUCCUGGUUCACCCCGCCCAAGGGACCUGCCCCCAUUCCUGUGGCCCUGGGGCCCAGCUUCCAAUAGUGUCA | 0.215
AUAUAUUGUUUGUUUGUUUGUUUGUUGACAGAGAAAAAUUGGUAUUUAUUUUUCUAUUAUAGCCAUAUUUAUAUAUUUAUGCACUUGUAAAUAAAUGUAUAUGUGUUUCU | 1.81
AAAAAAAAAAAACACGUUUGAUACUUUGUACAUCAGAUGCAUCUUAUUUAAAAGGGAUACUUUUGUAAAAGUAAAACCUUGUAUAAAGAACAAAAUGUUUCUUAAUUUUA | 3.05
GAGACCCCACUCUGACAGUGGGCACACGGCAGCCUGCAAAGCACAGGGCCACCGCCACAGCCCGGCAGAGGGGCACACUCUGGAGACCUUGCUGGCAGUGCUAGCCAGGA | 0.187
AGUGAACAAACUGCAUGGCCUUGGAGAGAGACUCUGGGCUCUUGGCUCAGAUGUGUUCAUCAAAUACUCCUUUCAGAGCUGUUGUGGGUGUAAGUGACAUGAUGUGGCCA | 0.505
CACCUGUACCUCCCUAUGUCCCCAUCCUUGCCCAGUCUCGACGUGCACCAAGGGCACAAGAGUGGCAGUCCAGAUCUGCCACUUGUUUUAAUAAAGCCUUCUCUCUCACC | 0.974
GGGUUUGUUUUGCGCUCUCCUGUCACAAAUGCUGCACUAUUGGUUCUUAAGUUUUUUAUCUCCAGAUCCUAAUUUAUGCCUAUGCAAAAAAUAAAUGACGCCCAAGAGCU | 0.435
CUUAAAAUAUCCCCCUACCUGGGUCCUCAGUGCUAUGUUUAAAGUGCUGCAGGGAUGGAGUGGCGUUUUCUUAUUGCUGUAUGUAUUGUACAUAGUGGAGUAGUUAGUUA | 1.29
UGCUUUUACCCUACCCUGUACUAUACAUGAAAAUUCCAGUUAUUAACACACUCAAACUGGUGGAGCUUGUUCACCCUAGGAAGGGGAUUGUAUAUAUGGCAGGCUUCCCU | 0.443

Study 4
Target: RING finger protein unkempt homolog, zinc fingers 1-6, GST-SBP tag (UNK, Homo sapiens, UniProt Q9C0B0, residues 30-357)
Method: RNA Bind-n-Seq
Form: RNA
Sample: in vitro
Tested at: not given
Notes: RNA with constant flanks, ends assumed
Reference: input RNA pool
Reading: higher = stronger binding
Constant ends, left off below: GGGAGUUCUACAGUCCGACGAUC … CAACAGAGGAUUGAGCAUCA
Construct (chain): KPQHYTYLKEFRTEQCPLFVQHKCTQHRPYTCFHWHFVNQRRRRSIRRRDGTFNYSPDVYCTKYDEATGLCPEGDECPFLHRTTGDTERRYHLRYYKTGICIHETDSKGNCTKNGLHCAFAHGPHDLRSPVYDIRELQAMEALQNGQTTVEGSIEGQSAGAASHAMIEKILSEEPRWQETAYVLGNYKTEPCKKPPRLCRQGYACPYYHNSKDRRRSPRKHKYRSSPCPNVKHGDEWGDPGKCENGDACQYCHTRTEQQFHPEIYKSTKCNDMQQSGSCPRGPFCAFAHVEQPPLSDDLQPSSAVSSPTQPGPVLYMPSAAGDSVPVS
Oligonucleotide | bound/input enrichment
UUUGUACCAGUUAUCAAACUCUGUUUUGAUGGAAUAGAGAUUGAUAUUUUGUUUGCAAGAUCCGCACUGCAGACUAUUCCAGAAGAUUUGGACCUACGAGAUGACAGUCUGCUUAAAAAC | 0.114 ratio
AUUGUGGGAGCGCUGAUGGCCAGUGGCAAAGAAGUGGCUGGGAAGAUCCCCAAAGGGAAGUCCGUCGACUUUGAAGCCAUGACAGCCCCUGGCUCAGAGGCCUUCAGCAAAAUAGCAAAA | 0.18 ratio
ACUUCAUCUUCCUCCUCUGAAGAUGAACAGCACUUUGAGAGGCGGAGGAAAAGGAGUCGUAACCGGGCUAUCAAUAGGUGCCUCCCACUAAAUUUUCGGAAAGAUGAAUUAAAAGGCAUU | 0.0683 ratio
GAGGAAUGUAAUUCCCUGAGUGAUGUGUUAGAUGCAUUUUCAAAAGCGCCCACAUUUCCCCGCCGCAACUAUUUCACAGCAAUGUGGACAAUUGCCAAAAGACUGUCUGAUGACCAGAAG | 0.202 ratio
AUCCCACUGGGGAACUAGUCCUGUCCAUCUGGUGUUGGCGUGCUGGCUGCACACUUUGUUUCCGGGCCUGAACACCUGUGUGUAUGUGUGUGUGUAUGUGUGUGUGUGCGUGCGUGUGCU | 0.346 ratio
GGAAGUGGAAGAUCCUGUGGAUUCGGAUGGAGAAGUCCUGGGCUUUGAGAACCUCGUCUUCCGCAUUUUUGAGUUUGUCCAUGCCCUACUGGAGAACAGCAAGUUCAAAAGCACCGUUAA | 0.234 ratio
GGUCACACCAGGCCUACAAGGGCAGAAGUUAAAUAAAUUGAACUAGGGCACUAAACUGAACCGUUGACAGUGUCAUUUUAUGUUGGAUUAUUAAUUACUGUUUUUCUUCCUGCUAUCUGU | 0.171 ratio

Some of these lines once more (study 1):
Change | normalised enrichment score
PPHRRRLLFACSA [P13A] | 0.309
PWHRRRLLFACSP [P2W] | 0.253
PPHRRRLAFACSP [L8A] | -0.0884
PPHRRRQLFACSP [L7Q] | -0.387
PPGRRRLLFACSP [H3G] | 0.413
